# Published values pooled from the literature.
# Numbered parts are unrelated; each lists some results of a single study.

# Set 1 — method: universal PBM; form: double-stranded DNA, one strand shown; sample: in vitro; concentration: not given; reading: higher = stronger binding
# Target: Sal-like protein 4, full length isoform B (SALL4, Homo sapiens, UniProt Q9UJQ4-2, residues 1-616)
# Notes: 8-mer, flanks averaged, mean of replicates
# Residues (chain): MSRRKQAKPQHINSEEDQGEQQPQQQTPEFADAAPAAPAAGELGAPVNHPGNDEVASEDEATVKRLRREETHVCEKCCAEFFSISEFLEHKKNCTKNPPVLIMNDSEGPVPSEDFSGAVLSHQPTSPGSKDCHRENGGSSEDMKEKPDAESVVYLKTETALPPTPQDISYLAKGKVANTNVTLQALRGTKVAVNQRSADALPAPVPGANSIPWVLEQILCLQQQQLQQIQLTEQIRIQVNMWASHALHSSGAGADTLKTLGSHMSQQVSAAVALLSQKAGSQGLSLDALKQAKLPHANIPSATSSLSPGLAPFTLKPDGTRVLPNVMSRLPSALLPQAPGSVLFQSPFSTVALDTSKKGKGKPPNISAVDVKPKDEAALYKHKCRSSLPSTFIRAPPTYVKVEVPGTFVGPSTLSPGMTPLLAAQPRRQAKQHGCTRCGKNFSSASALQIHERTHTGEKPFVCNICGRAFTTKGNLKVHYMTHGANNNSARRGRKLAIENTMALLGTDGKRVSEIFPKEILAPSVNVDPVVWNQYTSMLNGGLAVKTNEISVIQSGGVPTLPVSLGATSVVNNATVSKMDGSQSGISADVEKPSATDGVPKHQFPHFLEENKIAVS
Oligonucleotide,E-score
AGACTCCG,-0.137
ACGTGAAT,0.0311
ATGGGGGC,-0.208
CGTGTAAC,0.0246
ATTGCAAA,0.276
AGAGCACA,-0.175

# Set 2 — method: protein-binding microarray; form: double-stranded DNA, one strand shown; sample: in vitro; concentration: 0.8 µM; notes: whole 60-bp probe, no competitor; reading: higher = stronger binding
# Target: Centromere-binding protein 1, full length, N-terminal tag (CBF1, Saccharomyces cerevisiae, UniProt P17106, residues 1-351)
# Chain of UniProt P17106 (whole entry, looked up): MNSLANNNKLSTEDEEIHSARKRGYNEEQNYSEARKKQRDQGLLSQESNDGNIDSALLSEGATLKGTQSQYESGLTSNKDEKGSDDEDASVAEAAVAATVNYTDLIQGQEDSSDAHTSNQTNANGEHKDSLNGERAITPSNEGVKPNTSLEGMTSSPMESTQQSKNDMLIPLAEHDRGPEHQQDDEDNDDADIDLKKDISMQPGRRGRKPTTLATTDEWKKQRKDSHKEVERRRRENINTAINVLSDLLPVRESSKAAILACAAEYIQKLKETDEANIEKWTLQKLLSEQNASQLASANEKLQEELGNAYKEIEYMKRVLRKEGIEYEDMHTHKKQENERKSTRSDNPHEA
Oligonucleotide,fluorescence intensity
GAAAAGTTCGTGCGTCACCTGCACCAGCATATTTAGGTCTTGATTCGCTTGACGCTGCTG,950 a.u.
CTAATATATGGTAACCACCAGAGAACTTGTTATTTCGTCTTGATTCGCTTGACGCTGCTG,507 a.u.
TGTACGAAGCTATACGTCATCAGTATAGTAGTTAGGGTCTTGATTCGCTTGACGCTGCTG,1590 a.u.
CCTAACTACTATATCCGCGTGTTATAGCTTCGTACAGTCTTGATTCGCTTGACGCTGCTG,580 a.u.

# Single results of other studies
# PABPC1L2 full length, GST fusion: PABPC1L2, full length, GST fusion (mouse, UniProt A0ABA7IW68)
Molecule,target,assay,test system,conditions,scale,measurement,value
AGGGCCU,"PABPC1L2 full length, GST fusion",RNAcompete,"RNA, in vitro","20 nM, 7-mer, probes averaged, single round","reference: mean of 7-mers, higher = stronger binding",7-mer Z-score,-0.0283
"PhoQ, residues 284 288 289 292 302 303 SSCLAV","PhoP, residues 12 14 15 18 19 LHSVW (Escherichia coli, UniProt P23836)","Sort-seq, refers to: YFP reporter",E. coli,"PhoQ-PhoP variant library, added: 10 µM Mg2+","reference: high Mg2+ state, higher = stronger signaling",fold induction,1.98
GCGCUCU,"PABPC1L2 full length, GST fusion",RNAcompete,"RNA, in vitro","20 nM, 7-mer, probes averaged, single round","reference: mean of 7-mers, higher = stronger binding",7-mer Z-score,-0.173
